Published values pooled from the literature.
Each line is one published result; not all experiments were run side by side. Numbers after ± are the reported error. ≈ marks a conversion by molar mass, not a printed value.

`CCCSc1nc(N[C@@H]2C[C@H]2c2ccc(F)c(F)c2)c2nnn([C@@H]3C[C@H](OCCO)[C@@H](O)[C@H]3O)c2n1` has a plasma concentration of 32.3 ± 56.7 ng/mL (STEMI patients, plasma; 180 mg loading dose, 1 h, added: morphine).
With `O=C(Nc1ccccc1)c1cc([N+](=O)[O-])ccc1Cl` the AUC(0-last) was 42.8 ng·h/mL (LC-MS/MS; Sprague-Dawley rat, male, plasma; intravenous, 2.5 mg/kg).
`CC(C)C[C@H](NC(=O)[C@@H]1C[C@@H](O)CN1C(=O)[C@H](Cc1ccccc1)NC(=O)[C@H](CO)NC(=O)[C@H](C)NC(=O)[C@H](Cc1ccccc1)NC(=O)[C@@H](NC(=O)[C@H](CCC(=O)O)NC(=O)[C@H](Cc1c[nH]cn1)NC(=O)[C@@H](NC(=O)[C@@H](NC(=O)[C@H](CCC(N)=O)NC(=O)[C@H](C)NC(=O)[C@@H](N)CC(=O)O)[C@@H](C)O)C(C)C)C(C)C)C(=O)N[C@@H](CC(=O)O)C(=O)N[C@@H](CO)C(=O)N[C@@H](CC(=O)O)C(=O)NCC(=O)N[C@H]1CSSC[C@@H](C(N)=O)NC(=O)[C@H](Cc2ccc(O)cc2)NC(=O)[C@H](Cc2c[nH]cn2)NC(=O)[C@H](CCCCN)NC(=O)CNC(=O)[C@@H]2CSSC[C@H](NC1=O)C(=O)N[C@@H](Cc1c[nH]c3ccccc13)C(=O)N[C@@H](CC(N)=O)C(=O)N1CCC[C@H]1C(=O)N[C@@H](C)C(=O)N2` — result for “degradation to non-isomer products”: 14.7 ± 0.86% (RP-HPLC; mouse serum 25%; 50 µM, 6 h, 37 °C).
For `N-methyl-N′-nitro-N-nitrosoguanidine`, “comet assay result” read “positive” (Phenion FT skin model).
`C[C@@H]1NC(=O)[C@@H]2CCCN2C(=O)[C@H](CC(N)=O)NC(=O)[C@H](Cc2c[nH]c3ccccc23)NC(=O)[C@@H]2CSSC[C@@H](C(N)=O)NC(=O)[C@H](Cc3ccc(O)cc3)NC(=O)[C@H](Cc3c[nH]cn3)NC(=O)[C@H](CCCCN)NC(=O)CNC(=O)[C@H](CSSC[C@H](NC(=O)CN)C(=O)N2)NC1=O` — result for “degradation to non-isomer products”: 29.1 ± 0.94% (RP-HPLC; mouse serum 25%; 50 µM, 6 h, 37 °C).
For `Cc1cc(N(CCOS(C)(=O)=O)CCOS(C)(=O)=O)ccc1C(=O)O`, “apparent volume of distribution” read 6 L/kg (mouse; iv, 20 mg/kg).
The terminal half-life of `CC[C@@H](C(N)=O)N1CCCC1=O` is reported as 4.18 h (LC-MS/MS; rat, control, whole blood; oral, 50 mg/kg levetiracetam, added: atropine 5 mg/kg).
With `CCCCCCCCCCCCCCCC(=O)NCCCC[C@H](NC(=O)CNC(=O)[C@H](CO)NC(=O)CNC(=O)[C@H](CCC(N)=O)NC(=O)[C@H](Cc1c[nH]cn1)NC(=O)[C@H](Cc1c[nH]c2ccccc12)NC(=O)[C@H](CCCCN)NC(=O)CNC(=O)[C@@H](NC(=O)[C@H](CO)NC(=O)[C@H](CCC(=O)O)NC(=O)[C@H](CC(C)C)NC(=O)[C@@H](NC(=O)[C@H](CCCCN)NC(=O)[C@H](CC(N)=O)NC(=O)[C@H](CO)NC(=O)[C@H](CCCNC(=N)N)NC(=O)[C@H](CCCNC(=N)N)NC(=O)[C@@H](NC(=O)[C@H](Cc1c[nH]c2ccccc12)NC(=O)[C@H](CCC(=O)O)NC(=O)[C@H](CCCCN)NC(=O)[C@H](CO)NC(=O)[C@H](CCC(=O)O)NC(=O)[C@H](CCC(=O)O)NC(=O)[C@H](CC(C)C)NC(=O)[C@H](CC(=O)O)NC(=O)[C@H](CCCCN)NC(=O)[C@H](CCCCN)NC(=O)[C@@H](NC(=O)[C@H](CCCCN)NC(=O)[C@H](CCCNC(=N)N)NC(=O)[C@H](CC(C)C)NC(=O)[C@@H](NC(=O)[C@H](CCC(=O)O)NC(=O)[C@H](CO)NC(=O)[C@@H](NC(=O)[C@H](CC(=O)O)NC(=O)[C@@H](NC(=O)[C@@H]1CCCN1C(=O)[C@H](CC(=O)O)NC(=O)[C@H](CC(C)C)NC(=O)[C@H](C)NC(=O)[C@@H](N)C(C)C)[C@@H](C)CC)[C@@H](C)CC)C(C)C)[C@@H](C)CC)[C@@H](C)CC)[C@@H](C)CC)[C@@H](C)CC)C(=O)O` the solubility was 11800 ± 870 µg/mL (≈ 2150 µM) (PBS).
`C=C(C)[C@@H]1[C@H]2OC(=O)[C@@H]1[C@]1(O)C[C@H]3O[C@]34C(=O)O[C@H]2[C@]14C`: “peak brain concentration” 351 ± 106 nM (male NIH-NCI Swiss mice, brain; intraperitoneal, 2 mg/kg, 20 min).
With `Cc1cn(CC(=O)N(CCNC(=O)CN(CCNC(=O)CN(CCNC(=O)CN(CCNC(=O)CN(CCNC(=O)CN(CCNC(=O)CN(CCNC(=O)CN(CCNC(=O)CN(CCNC(=O)CN(CCNC(=O)COCCOCCNC(=O)COCCOCCNC(=O)[C@H](CNC(=O)[C@H](CNC(=O)[C@H](CNC(=O)[C@H](CNC(=O)COCCOCCNC(=O)CN2CCN(CC(=O)O)CCN(CC(=O)O)CCN(CC(=O)O)CC2)NC(=O)COCCOCCNC(=O)CN2CCN(CC(=O)O)CCN(CC(=O)O)CCN(CC(=O)O)CC2)NC(=O)[C@H](CNC(=O)COCCOCCNC(=O)CN2CCN(CC(=O)O)CCN(CC(=O)O)CCN(CC(=O)O)CC2)NC(=O)COCCOCCNC(=O)CN2CCN(CC(=O)O)CCN(CC(=O)O)CCN(CC(=O)O)CC2)NC(=O)[C@H](CNC(=O)[C@H](CNC(=O)COCCOCCNC(=O)CN2CCN(CC(=O)O)CCN(CC(=O)O)CCN(CC(=O)O)CC2)NC(=O)COCCOCCNC(=O)CN2CCN(CC(=O)O)CCN(CC(=O)O)CCN(CC(=O)O)CC2)NC(=O)[C@H](CNC(=O)COCCOCCNC(=O)CN2CCN(CC(=O)O)CCN(CC(=O)O)CCN(CC(=O)O)CC2)NC(=O)COCCOCCNC(=O)CN2CCN(CC(=O)O)CCN(CC(=O)O)CCN(CC(=O)O)CC2)NC(=O)[C@H](CNC(=O)[C@H](CNC(=O)[C@H](CNC(=O)COCCOCCNC(=O)CN2CCN(CC(=O)O)CCN(CC(=O)O)CCN(CC(=O)O)CC2)NC(=O)COCCOCCNC(=O)CN2CCN(CC(=O)O)CCN(CC(=O)O)CCN(CC(=O)O)CC2)NC(=O)[C@H](CNC(=O)COCCOCCNC(=O)CN2CCN(CC(=O)O)CCN(CC(=O)O)CCN(CC(=O)O)CC2)NC(=O)COCCOCCNC(=O)CN2CCN(CC(=O)O)CCN(CC(=O)O)CCN(CC(=O)O)CC2)NC(=O)[C@H](CNC(=O)[C@H](CNC(=O)COCCOCCNC(=O)CN2CCN(CC(=O)O)CCN(CC(=O)O)CCN(CC(=O)O)CC2)NC(=O)COCCOCCNC(=O)CN2CCN(CC(=O)O)CCN(CC(=O)O)CCN(CC(=O)O)CC2)NC(=O)[C@H](CNC(=O)COCCOCCNC(=O)CN2CCN(CC(=O)O)CCN(CC(=O)O)CCN(CC(=O)O)CC2)NC(=O)COCCOCCNC(=O)CN2CCN(CC(=O)O)CCN(CC(=O)O)CCN(CC(=O)O)CC2)C(=O)Cn2cnc3c(=O)[nH]c(N)nc32)C(=O)Cn2ccc(N)nc2=O)C(=O)Cn2ccc(N)nc2=O)C(=O)Cn2cnc3c(N)ncnc32)C(=O)Cn2cc(C)c(=O)[nH]c2=O)C(=O)Cn2ccc(N)nc2=O)C(=O)Cn2cnc3c(N)ncnc32)C(=O)Cn2cnc3c(=O)[nH]c(N)nc32)C(=O)Cn2ccc(N)nc2=O)CC(=O)NCCN(CC(=O)NCCN(CC(=O)NCCOCCOCC(=O)N[C@@H]2CSSC[C@H](C(N)=O)NC(=O)[C@@H](CCCCN)NC(=O)[C@@H](CO)NC2=O)C(=O)Cn2ccc(N)nc2=O)C(=O)Cn2ccc(N)nc2=O)c(=O)[nH]c1=O` the intact probe was over 99% (radio-HPLC; mouse, ASPC1 xenograft, urine; intravenous, 3.5 h; reference: urine radioactivity).
The solubility of `C[C@H](Cc1ccc(O)c(O)c1)[C@@H](C)Cc1ccc(O)c(O)c1` is reported as 500 µg/mL (≈ 1650 µM) (PEG 400 and PBS 70:30; 24 h, room temperature).
The solubility of `CCCCCCCCCCCCCCCC(=O)NCCCC[C@H](NC(=O)CNC(=O)[C@H](CO)NC(=O)CNC(=O)[C@@H](NC(=O)[C@@H](NC(=O)[C@@H](NC(=O)[C@H](CO)NC(=O)[C@H](CO)NC(=O)[C@H](CCC(N)=O)NC(=O)[C@H](Cc1c[nH]cn1)NC(=O)[C@H](Cc1c[nH]c2ccccc12)NC(=O)[C@H](CC(N)=O)NC(=O)CNC(=O)[C@@H](NC(=O)[C@H](CO)NC(=O)[C@H](CC(=O)O)NC(=O)[C@H](CC(C)C)NC(=O)[C@@H](NC(=O)[C@H](CCCCN)NC(=O)[C@H](CC(N)=O)NC(=O)[C@H](CO)NC(=O)[C@H](CCCNC(=N)N)NC(=O)[C@H](CCCNC(=N)N)NC(=O)[C@@H](NC(=O)[C@H](Cc1c[nH]c2ccccc12)NC(=O)[C@H](CCC(=O)O)NC(=O)[C@H](CCCCN)NC(=O)[C@H](CO)NC(=O)[C@H](CCC(=O)O)NC(=O)[C@H](CCC(=O)O)NC(=O)[C@H](CC(C)C)NC(=O)[C@H](CC(=O)O)NC(=O)[C@H](CO)NC(=O)[C@H](CCCCN)NC(=O)[C@@H](NC(=O)[C@H](CCCCN)NC(=O)[C@H](CC(N)=O)NC(=O)[C@H](CC(C)C)NC(=O)[C@@H](NC(=O)[C@@H](NC(=O)[C@H](CO)NC(=O)[C@@H](NC(=O)[C@H](CC(=O)O)NC(=O)[C@@H](NC(=O)[C@@H]1CCCN1C(=O)[C@H](CC(=O)O)NC(=O)[C@H](CC(C)C)NC(=O)[C@H](C)NC(=O)[C@@H](N)C(C)C)[C@@H](C)CC)[C@@H](C)CC)[C@@H](C)CC)C(C)C)[C@@H](C)CC)[C@@H](C)CC)[C@@H](C)CC)[C@@H](C)CC)[C@@H](C)O)[C@@H](C)O)[C@@H](C)CC)C(=O)O` is reported as 60 ± 10 µg/mL (≈ 10.3 µM) (PBS).
`CN(CC1CCN(Cc2ccccc2)CC1)C(=O)c1cn(Cc2ccccc2Cl)nn1`: “brain to plasma AUC ratio” 2.8 (C57BL/6 mice male; intraperitoneal, 10 mg/kg; reference: brain over plasma).
With `CCCCCCCCCCCCCCCC(=O)NCCCC[C@H](NC(=O)CNC(=O)[C@H](CO)NC(=O)CNC(=O)[C@H](CCC(N)=O)NC(=O)[C@H](Cc1c[nH]cn1)NC(=O)[C@H](Cc1c[nH]c2ccccc12)NC(=O)[C@H](CC(N)=O)NC(=O)CNC(=O)[C@@H](NC(=O)[C@H](CO)NC(=O)[C@H](CC(=O)O)NC(=O)[C@H](CC(C)C)NC(=O)[C@@H](NC(=O)[C@H](CCCCN)NC(=O)[C@H](CC(N)=O)NC(=O)[C@H](CO)NC(=O)[C@H](CCCNC(=N)N)NC(=O)[C@H](CCCNC(=N)N)NC(=O)[C@@H](NC(=O)[C@H](Cc1c[nH]c2ccccc12)NC(=O)[C@H](CCC(=O)O)NC(=O)[C@H](CCCCN)NC(=O)[C@H](CO)NC(=O)[C@H](CCC(=O)O)NC(=O)[C@H](CCC(=O)O)NC(=O)[C@H](CC(C)C)NC(=O)[C@H](CC(=O)O)NC(=O)[C@H](CO)NC(=O)[C@H](CCCCN)NC(=O)[C@@H](NC(=O)[C@H](CCCCN)NC(=O)[C@H](CC(N)=O)NC(=O)[C@H](CC(C)C)NC(=O)[C@@H](NC(=O)[C@@H](NC(=O)[C@H](CO)NC(=O)[C@@H](NC(=O)[C@H](CC(=O)O)NC(=O)[C@@H](N)[C@@H](C)CC)[C@@H](C)CC)[C@@H](C)CC)C(C)C)[C@@H](C)CC)[C@@H](C)CC)[C@@H](C)CC)[C@@H](C)CC)C(=O)O` the solubility was 720 ± 40 µg/mL (≈ 149 µM) (water).
`Cc1cc(N(CCCl)CCCl)ccc1C(=O)O` has a renal clearance of 0.05 mL/min (mouse CD2F1; iv, 20 mg/kg of bendamustine).
`CC[C@H](C)[C@@H]([C@@H](CC(=O)N1CCC[C@H]1[C@H](OC)[C@@H](C)C(=O)NCCc1ccc(OP(=O)([O-])[O-])cc1)OC)N(C)C(=O)[C@@H](NC(=O)[C@H](C(C)C)N(C)C)C(C)C.[Li+].[Li+]` has a solubility of over 65000 µg/mL (distilled water; 23 °C).

A few entries again:
`CCCSc1nc(N[C@@H]2C[C@H]2c2ccc(F)c(F)c2)c2nnn([C@@H]3C[C@H](OCCO)[C@@H](O)[C@H]3O)c2n1` has a plasma concentration of 32.3 ± 56.7 ng/mL (STEMI patients, plasma; 180 mg loading dose, 1 h, added: morphine).
